Experimental data collected from several papers.
SRC: Proto-oncogene tyrosine-protein kinase Src (SRC, Homo sapiens, UniProt P12931)

SMILES	target	test	conditions	scale	measurement	result
Cc1cc(Nc2cc(N3CCN(C)CC3)nc(Sc3ccc(NC(=O)C4CC4)cc3)n2)[nH]n1	SRC	kinase activity	0.03 µM, residues 1-530	relative to: control	remaining activity	78%
CC(C)(C)n1nc(-c2ccc(Cl)cc2)c2c(N)ncnc21	SRC	autophosphorylation, cellular ELISA	–	relative to: cellular IC50 over biochemical Ki	potency loss	44 fold
C=CC(=O)N1CCC(COCC(=O)N2CCN(c3nc(-c4cnc(N)nc4C(F)F)nc(N4CCOC[C@@H]4C)n3)CC2)CC1	SRC	KINOMEscan	1 µM	–	remaining binding	94%
COc1cc2ncnc(Nc3ccc(Oc4ccccc4)cc3C)c2cc1OC	Proto-oncogene tyrosine-protein kinase Src, N1 isoform (SRC, Homo sapiens, UniProt P12931)	kinase activity, inhibitor	1 µM	–	inhibition	87%
CNC(=O)c1cc2c(Oc3ccc(NC(=O)C4(C(=O)Nc5ccc(F)cc5)CC4)cc3)ccnc2cc1OC	SRC	kinase activity	1 µM	–	inhibition	97%
O=C(NC1CCC1)c1ccc2nc(-c3cccc(NS(=O)(=O)NCCN4CCCCC4)c3)cn2c1	SRC	enzyme activity	10 µM	–	remaining activity	88%
[2H]c1cc(C)c(NC(=O)c2cnc(Nc3cc(N4CCCCC4)nc(C)n3)s2)c(Cl)c1	SRC	–	0.0001 µM	–	inhibition	> 50%
O=C1NC(=O)/C(=C/c2ccc(-c3ccc(F)cc3O)o2)S1	SRC	enzyme activity	10 µM	–	remaining activity	96%
COc1cc(-c2cncc3c2CN(C)Cc2cc(N4CCNCC4)ccc2-3)cc(OC)c1OC	SRC	kinase activity	1 µM, human enzyme, together with: ATP 10 µM	relative to: DMSO control	remaining activity	92%
Cc1cnc(NC2CCOCC2)nc1-n1cnc(C(=O)NC(CN)c2cc(F)cc(Cl)c2)c1 (stereo not shown)	SRC	kinase activity, radiometric	1 µM, kinase domain construct	–	remaining activity	97%
c1cnc2ccc(Nc3nc(NC4CC4)c4nc[nH]c4n3)cc2c1	SRC	kinase activity, inhibitor, SelectScreen kinase profiling	1 µM	relative to: control	remaining activity	98%
[2H]c1cc(C)c(NC(=O)c2cnc(Nc3cc(N4CCC(O)CC4)nc(C)n3)s2)c(Cl)c1	SRC	–	0.001 µM	–	inhibition	> 50%
C[C@H]1Oc2cc(cnc2N)-c2c(nn(C)c2C#N)CN(C)C(=O)c2ccc(F)cc21	SRC	enzyme activity, inhibitor	concentration not given, together with: 10 µM ATP	–	inhibition	no inhibition

Excerpt of the above:
SMILES	target	test	conditions	scale	measurement	result
[2H]c1cc(C)c(NC(=O)c2cnc(Nc3cc(N4CCCCC4)nc(C)n3)s2)c(Cl)c1	SRC	–	0.0001 µM	–	inhibition	> 50%
